Measured values pooled from the literature.
Protocols differ between the studies behind these lines. ± gives the spread as reported. In brackets after ≈: the same amount, converted by molar mass.
Organism: Plasmodium falciparum

SMILES | test | test system | setting | how to read | quantity | result
O=C(CCc1ccc[nH]1)NCC(=O)NC12CC3CC(CC(C3)C1)C2 | parasite growth | Dd2, chloroquine-resistant |  |  | IC50 | > 2500 nM
O=C1C2=C(Nc3ccccc3SC2c2ccc(F)cc2)c2ccccc21 (racemic) |  | Dd2 expressing yeast DHOD | together with: 5 nM proguanil | relative to: transgenic over parental Dd2 | fold resistance | 0.1
CC(C)N1CCCCC1C(=O)NC(Cc1ccc(-c2ccccc2)cc1)B(O)O (stereo not shown) | parasite growth, flow cytometry | 3D7 | 72 h |  | LD50 | 11 nM
O=C1C2=C(Nc3ccccc3SC2c2ccsc2)c2ccccc21 (racemic) |  | Dd2 expressing yeast DHOD | together with: 5 nM proguanil | relative to: transgenic over parental Dd2 | fold resistance | 0.27
Clc1ccc(C2=CC(c3ccc[nH]3)=NC2=CNC2CCCC2)cc1 | parasite growth | Dd2, chloroquine-resistant |  |  | IC50 | > 2500 nM
N#Cc1c(-c2ccco2)[n+]([O-])c2ccccc2[n+]1[O-] |  | K1 chloroquine-resistant |  | relative to: K1 IC50 over 3D7 IC50 | resistance index | 0.84
CCC1=CC(=CNC23CC4CC(CC(C4)C2)C3)N=C1c1ccc[nH]1 | parasite growth | 7G8, chloroquine-resistant |  |  | IC50 | 90 nM
COc1cc2c3c4c1Oc1cc5c(cc1O4)[C@H](Cc1ccc(OCCCN(C)C)c(c1)Oc1ccc(cc1)C[C@@H]3N(C)CC2)N(C)CC5 |  | NF54, early ring stage | 3 x IC50, 6 h, 0-6 h post-invasion, read at 72 h post-invasion |  | parasite survival | ~20%
N#Cc1c(-c2ccco2)[n+]([O-])c2ccc(Cl)cc2[n+]1[O-] |  | K1 chloroquine-resistant |  | relative to: K1 IC50 over 3D7 IC50 | resistance index | 0.69
CCCCN1C(=O)c2ccc3c4c(ccc(c24)C1=O)C(=O)N(CCNc1c2ccc(Cl)cc2nc2ccc(OC)cc12)C3=O | parasite growth, SYBR Green I fluorescence | W2 over 3D7 |  | relative to: IC50 W2 over IC50 3D7 | resistance index | 14.3
CC1=CC(=CNC23CC4CC(CC(C4)C2)C3)N=C1c1ccc[nH]1 | parasite growth | 7G8, chloroquine-resistant |  |  | IC50 | 95 nM
O=C1C2=C(Nc3ccccc3SC2C2CC2)c2ccccc21 (racemic) | growth, [3H]hypoxanthine incorporation | Dd2 |  |  | EC50 | 20 nM
CC[C@H](C)[C@@H]1NC(=O)[C@H](CCCCN)NC(=O)[C@H](CCCCN)NC(=O)[C@H](Cc2ccc(O)cc2)NC(=O)[C@H](CC(C)C)NC(=O)[C@@H]2CCCN2C(=O)[C@H](C)NC(=O)CNC(=O)CNC(=O)[C@H](CO)NC(=O)CNC(=O)CNC(=O)[C@H](CO)NC(=O)[C@H](CCCCN)NC(=O)[C@H](CC(C)C)NC(=O)[C@H](CC(C)C)NC(=O)[C@H](CCCCN)NC(=O)[C@H](CCCCN)NC(=O)[C@H]([C@@H](C)CC)NC(=O)[C@H]([C@@H](C)CC)NC(=O)[C@H](CCCCN)NC(=O)[C@H](CCCCN)NC(=O)[C@H](Cc2ccc(O)cc2)NC(=O)[C@H](CC(C)C)NC(=O)[C@@H]2CCCN2C(=O)[C@H](C)NC(=O)CNC(=O)CNC(=O)[C@H](CO)NC(=O)CNC(=O)CNC(=O)[C@H](CO)NC(=O)[C@H](CCC(=O)O)NC(=O)[C@H](CC(C)C)NC(=O)[C@H](CC(C)C)NC(=O)[C@H](CCCCN)NC(=O)[C@H](CCCCN)NC(=O)[C@H]([C@@H](C)CC)NC1=O | parasite growth | 3D7 | 72 h, 5% serum plus Albumax II |  | IC50 | 9200 ± 1000 nM
COC1=CC(c2ccc[nH]2)=NC1=Cc1[nH]c(Cc2ccc(Cl)cc2)cc1Cc1ccc(Cl)cc1 | parasite growth | Dd2, chloroquine-resistant |  |  | IC50 | 4.8 nM
Cc1[nH]c2ccccc2c1C1CCN(CC2CCC(NC(=O)/C=C/c3ccc(Cl)c(Cl)c3)CC2)CC1 (stereo not shown) |  | 3D7 | 2.5 nM, 48 h |  | parasitaemia increase | 9.58%
C[C@H]1C(=O)O[C@@H]2O[C@@]3(C)CC[C@@H]4[C@@]2(OO3)[C@H]1CC[C@]4(C)O | parasite growth, SYBR Green I | Dd2 |  |  | MIC90 | 0.21 ± 0.0276 µM (≈ 0.0626 µg/mL)
Cc1c(-c2ccc[nH]2)c[nH]c1C=NC12CC3CC(CC(C3)C1)C2 | parasite growth | 7G8, chloroquine-resistant |  |  | IC50 | > 2500 nM
CC[C@H](C)[C@H](NC(=O)[C@H](Cc1ccccc1)NC(=O)[C@H](CC(C)C)NC(=O)[C@]1(C)CCCC=CCCC[C@](C)(NC(=O)[C@H](CC(C)C)NC(=O)[C@H](CCCCN)NC(=O)[C@H](CCC(N)=O)NC(=O)[C@H](CO)NC(=O)CNC(=O)CCNC(=O)c2ccc3c(c2)C(=O)OC32c3ccc(O)cc3Oc3cc(O)ccc32)C(=O)N[C@@H](CCC(N)=O)C(=O)N[C@@H](C)C(=O)N[C@@H](C)C(=O)N1)C(=O)NCC(=O)N[C@@H](CO)C(=O)N[C@@H](CCCCN)C(=O)N[C@@H](CC(C)C)C(=O)N[C@H](C(=O)N[C@H](C(N)=O)[C@@H](C)O)[C@@H](C)O |  | CS2 | 10 µM, 24 h, late-stage iRBC |  | parasitemia reduction | ~30%
COc1ccccc1C1Sc2ccccc2NC2=C1C(=O)c1ccccc12 (racemic) | growth, hypoxanthine uptake | Dd2 expressing yeast DHOD |  |  | EC50 | > 5000 nM
CCC(C)C1NC(=O)C(Cc2ccccc2)NC(=O)C(CCCCCC(=O)C2CO2)NC(=O)C2CCCCN2C1=O (stereo not shown) | flow cytometry | Dd2 | concentration not given, 48 h exposure | relative to: DMSO control | time to full killing | 6 days
CC[C@H](C)[C@H](NC(=O)[C@@H](NC(=O)[C@H](Cc1ccc(O)cc1)NC(=O)[C@H](CCCCN)NC(=O)[C@H](CCCCN)NC(=O)[C@H](CC(C)C)NC(=O)[C@H](CC(=O)O)NC(=O)[C@H](Cc1ccc(O)cc1)NC(=O)[C@H](CCC(N)=O)NC(=O)[C@H](CCCCN)NC(=O)[C@@H](NC(=O)[C@H](Cc1ccccc1)NC(=O)[C@H](CCCCN)NC(=O)[C@H](CCCCN)NC(=O)[C@H](Cc1c[nH]c2ccccc12)NC(=O)[C@H](CCCCN)NC(=O)[C@H](CCSC)NC(=O)[C@H](CCCNC(=N)N)NC(=O)[C@H](CCCNC(=N)N)NC(=O)[C@H](CC(N)=O)NC(=O)[C@H](CCC(N)=O)NC(=O)[C@H](Cc1ccccc1)NC(=O)[C@H](Cc1c[nH]c2ccccc12)NC(=O)[C@@H](NC(=O)[C@H](CCCCN)NC(=O)[C@@H](NC(=O)[C@H](CCC(N)=O)NC(=O)[C@@H](N)CCCNC(=N)N)[C@@H](C)CC)[C@@H](C)CC)[C@@H](C)CC)[C@@H](C)CC)C(=O)O | parasite growth | 3D7 | early trophozoite stage |  | EC90 | ~90000 nM
COC1=CC(c2ccc[nH]2)=NC1=CNC1CC1 | parasite growth | Dd2, chloroquine-resistant |  |  | IC50 | 2500 nM

Excerpt of the above:
SMILES | test | test system | setting | how to read | quantity | result
COC1=CC(c2ccc[nH]2)=NC1=CNC1CC1 | parasite growth | Dd2, chloroquine-resistant |  |  | IC50 | 2500 nM
O=C1C2=C(Nc3ccccc3SC2C2CC2)c2ccccc21 (racemic) | growth, [3H]hypoxanthine incorporation | Dd2 |  |  | EC50 | 20 nM
N#Cc1c(-c2ccco2)[n+]([O-])c2ccc(Cl)cc2[n+]1[O-] |  | K1 chloroquine-resistant |  | relative to: K1 IC50 over 3D7 IC50 | resistance index | 0.69
